# Results pooled from the literature.
# Compare with care: the assays were run in different laboratories. Several values in a cell are separate wells, animals, samples, runs or records. ± marks the error that the study gave.
SMILES,test,system,setting,scale,measurement,value
CN1CCC[C@]1(C)/C=C/S(=O)(=O)NC(=O)Nc1c2c(cc3c1CCC3)CCC2,IL-18 release,"human, whole blood ex vivo","oral, 100 mg twice daily, day 14, 336 h, multiple ascending dose, with: LPS and ATP",,inhibition,97.2%
COC1CN([C@H]2CC[C@H]([C@@]3(C)Oc4c(Cl)cc(C(=O)NCc5c(SC)cc(C)[nH]c5=O)c(C)c4O3)CC2)C1,"RNA-seq, measured: EPB41L4A mouse homolog","mouse, HT-1376 xenograft, whole blood",dose not given,relative to: vehicle,log2 fold change,1.07
COc1cc(O)ccc1CCC(c1ccc(O)cc1)c1cc2c(c(C)c1O)OC(c1ccc(O)cc1)CC2 (mixture of isomers),,human blood,"1 µM, with: A23187",,LTB4 isomers level,258 ± 81 pg/mL
COCCOCCOCCNC(=O)Cc1cc(CC(=O)N[C@H]2C[C@H]3C(=O)Nc4cc(OCCOCCOCCOC)cc(n4)C(=O)N4CCC[C@H]4C(=O)Nc4cc(OCCOCCOCCOC)cc(n4)C(=O)N4CCC[C@H]4C(=O)Nc4cc(OCCOCCOCCOC)cc(n4)C(=O)N3C2)cc(CC(=O)N[C@H]2C[C@H]3C(=O)Nc4cc(OCCOCCOCCOC)cc(n4)C(=O)N4CCC[C@H]4C(=O)Nc4cc(OCCOCCOCCOC)cc(n4)C(=O)N4CCC[C@H]4C(=O)Nc4cc(OCCOCCOCCOC)cc(n4)C(=O)N3C2)c1,"anion binding, ITC",water/acetonitrile 95 vol% (98.2 mol%),"298 K, with: sodium sulfate",,ΔH,0.406 ± 0.0478 kcal/mol
CC(=O)[O-].O.[Cu+2].[O-]c1ccc(Br)cc1C=NCCN1CCOCC1,FRAP,,120 µM,,ferric reducing power,33.2%
O=S(=O)(NCc1ccncc1)c1ccc(C2CCCCC2)cc1,immunohistochemistry,"CK-p25 mice male, hippocampal pyramidal layer","ip, 0.3 mg/kg daily, 2 wk",relative to: vehicle,tubulin β3 immunoreactivity,~2.2 fold
O=[N+]([O-])[O-].O=c1c(C=NN=C([S-])Nc2ccccc2)coc2ccccc12.[Cu+2].c1cnc2c(c1)ccc1cccnc12,DNA cleavage,supercoiled pUC19 DNA,"100 µM, 4 h, 37 °C, no reducing agent, with: DNA 40 µM",,supercoiled DNA form,81%
COc1ccc(C(=O)CCc2cc(C(CCc3ccc(O)cc3OC)c3ccc(O)cc3)c(O)cc2OC)cc1 (racemic),,human blood,"1 µM, with: A23187",,LTB4 isomers level,337 ± 120 pg/mL
CCCCCCCCCCCCCCCC(=O)OCC(CSC[C@H](N)C(=O)N[C@@H](CO)C(=O)N[C@@H](CCCCN)C(=O)N[C@@H](CCCCN)C(=O)N[C@@H](CCCCN)C(=O)N[C@@H](CCCCN)C(=O)NCCCCCC(=O)N[C@@H](CCCCN)C(=O)N[C@@H](CC(C)C)C(=O)N[C@H](C(=O)N[C@@H](Cc1ccccc1)C(=O)N[C@@H](Cc1ccccc1)C(=O)N[C@@H](Cc1ccc2ccccc2c1)C(=O)O)C(C)C)OC(=O)CCCCCCCCCCCCCCC (stereo partly drawn),,"APP/PS1 transgenic mouse, hippocampus","intrahippocampal, dose not given, unit not given",relative to: injected over adjacent side,cleaved caspase-3 level,0.985 and 1.28 and 2.28 and 0.00352

# Repeated from above:
SMILES,test,system,setting,scale,measurement,value
COc1cc(O)ccc1CCC(c1ccc(O)cc1)c1cc2c(c(C)c1O)OC(c1ccc(O)cc1)CC2 (mixture of isomers),,human blood,"1 µM, with: A23187",,LTB4 isomers level,258 ± 81 pg/mL
